Assay results pooled from the literature.
Protocols differ between the studies behind these lines.

SMILES | tested on | assay | test system | conditions | measurement | result
COc1c(CCC[P+](c2ccccc2)(c2ccccc2)c2ccccc2)cc2c(c1OC)OCO2.[I-] | ACHN | SRB |  |  | LC50 | > -4 log M
S=C=NCCc1ccccc1 | human coronavirus OC43 | virus-induced cell killing | MRC-5 | screen | maximum inhibition | 5.15%
Cc1cc(N(CCOS(C)(=O)=O)CCOS(C)(=O)=O)ccc1C(=O)O | ACHN | cell growth |  |  | IC50 | 18.9 µg/mL
CCN(CC)c1ccc(C=NNC(=O)CSc2nc3ccccc3c(=O)n2Cc2ccc(S(N)(=O)=O)cc2)c(O)c1 | ACHN | NCI five-dose screen |  |  | CC50 | > 100000 nM
Nc1ncc(-c2nc(N3CCOCC3)nc(N3CCOCC3)n2)c(C(F)F)n1 | ACHN |  |  | 72 h | GI50 | 54 nM
COc1c(C)c2c(c(O)c1C/C=C(\C)CCC(=O)O)C(=O)OC2 | ACHN | cell proliferation | kidney cancer |  | IC50 | 1070 nM
Cc1cccc(-c2nn3c(c2-c2ccnc4ccc(C(N)=O)cc24)CCC3)n1 | human coronavirus OC43 | virus-induced cell killing | MRC-5 | screen | maximum inhibition | 10.2%
CC(C)N1CCC(NC2CCN(c3cccc(-c4cc5cc(F)ccc5[nH]4)c3)CC2)CC1 | ACHN |  |  |  | GI50 | 1780 nM
COc1cc(CCC[P+](c2ccccc2)(c2ccccc2)c2ccccc2)c(OC)c2c1OCO2.[I-] | ACHN | SRB |  |  | GI50 | -5.39 log M
Cn1cncc1C1=CN(c2ncnc3[nH]cnc23)CCS1 | ACHN |  |  | renal cancer | CC50 | > 200000 nM
CN1CCN(C2(CNC3CCN(c4cccc(-c5cc6cc(F)ccc6[nH]5)c4)CC3)CCC2)CC1 | ACHN |  |  |  | GI50 | 1730 nM

Repeated from above:
SMILES | tested on | assay | test system | conditions | measurement | result
CCN(CC)c1ccc(C=NNC(=O)CSc2nc3ccccc3c(=O)n2Cc2ccc(S(N)(=O)=O)cc2)c(O)c1 | ACHN | NCI five-dose screen |  |  | CC50 | > 100000 nM
Nc1ncc(-c2nc(N3CCOCC3)nc(N3CCOCC3)n2)c(C(F)F)n1 | ACHN |  |  | 72 h | GI50 | 54 nM
